Assay results gathered from unrelated publications.
Each line is one published result; not all experiments were run side by side. “And” joins repeats or separate records; there may be more than shown. Numbers after ± are the reported error.

Substance | cell line | test | test system | setting | how to read | measurement | value
Cl.O=C(CN(Cc1ccccc1)S(=O)(=O)NCc1cccc(Oc2ccccc2)c1)NCCN1CCOCC1 | HG23 norovirus replicon cells | – | – | 48 h | – | TD50 | 55 ± 12 µM
COc1cc2c(c(OC)c1OC)-c1c(cc3c(c1OC)OCO3)CC(C)C(C)C2 (stereo not shown) | HepG2 | LDH release | – | 48 h, together with: 1-aminobenzotriazole 0.5 mM | – | LD50 | 200 µM and > 200 µM
O=C(O)C(F)(F)C(F)(F)C(F)(F)C(F)(F)C(F)(F)C(F)(F)F | MDCK | – | – | 2 µM, 90 min, pH 7.4, receiver 0.4% BSA | – | Papp A to B | 14 nm/s
CO[C@]1(CO)O[C@@H](n2ccc(N)nc2=O)C(F)(F)[C@@H]1O | HEL embryonic lung fibroblasts | cell morphology, microscopy | – | – | – | minimum cytotoxic concentration | > 100 µM
NC1=NC2(CCNCC2)N(c2cccc(Cl)c2)C(N)=N1 | MDCK | microscopy, altered cell morphology | – | – | – | minimum cytotoxic concentration | > 100 µM
C[C@@H]1CCO[C@H]2Cn3cc(C(=O)NCc4ccc(F)cc4F)c(=O)c(O)c3C(=O)N12 | hCMEC/D3 | – | – | 10 µM, 1 h, in antiretroviral combination | – | intracellular concentration | 46.6 ± 2.71 ng/mL
CC(C)[C@@H]1NC(=O)[C@H](C)OC(=O)[C@@H](C(C)C)NC(=O)[C@@H](C(C)C)OC(=O)[C@H](C(C)C)NC(=O)[C@H](C)OC(=O)[C@@H](C(C)C)NC(=O)[C@@H](C(C)C)OC(=O)[C@H](C(C)C)NC(=O)[C@H](C)OC(=O)[C@@H](C(C)C)NC(=O)[C@@H](C(C)C)OC1=O | human iPSC-derived cardiomyocytes | mitochondrial membrane potential, refers to: JC-10 granules | – | 30 min | – | point of departure | < 30 µM
O=Cc1cc(Cn2ccc(=O)[nH]c2=O)ccc1O | HEL fibroblasts | cell morphology alteration | – | – | – | minimum cytotoxic concentration | > 100 µM
CCCN1C(N)=NC(N)=NC12CCN(S(=O)(=O)CCC)CC2 | MDCK | microscopy, altered cell morphology | – | – | – | minimum cytotoxic concentration | > 100 µM
O=C(CCCc1ccc2c(c1)CCCC2)NC(=O)N[C@@H]1O[C@H](CO)[C@@H](O)[C@H](O)[C@H]1O | HEL fibroblasts | cell morphology | – | 3 days | – | minimal cytotoxic concentration | > 100 µM
CCN(N=O)C(C)C | HepaRG, 2D | – | – | concentration not given, 24 h, highest tested concentration, hEGF 3 days | reference: vehicle | relative survival | 79.3%
CCC(CC)COC(=O)[C@H](C)N[P@](=O)(OC[C@H]1O[C@@](C#N)(c2ccc3c(N)ncnn23)[C@H](O)[C@@H]1O)Oc1ccccc1 | Vero E6 | MTT | – | – | – | IC50 | 43.1 ± 3.28 µM
CC[C@H](C)[C@H](NC(=O)[C@H](Cc1ccc(O)cc1)NC(=O)[C@@H](NC(=O)[C@H](CC(N)=O)NC(=O)[C@H](C)NC(=O)[C@H](CCCNC(=N)N)NC(=O)[C@H](CCCNC(=N)N)NC(=O)[C@H](CC(N)=O)NC(=O)[C@H](CCCNC(=N)N)NC(=O)[C@H](CCCNC(=N)N)NC(=O)[C@H](C)NC(=O)[C@@H](NC(=O)[C@H](CO)NC(=O)[C@@H](NC(=O)[C@@H](NC(=O)[C@H](CS)NC(=O)[C@H](CCCCN)NC(=O)[C@@H](N)CCCNC(=N)N)C(C)C)[C@@H](C)CC)C(C)C)[C@@H](C)CC)C(=O)N[C@@H](CC(C)C)C(=O)N[C@@H](CS)C(=O)N[C@@H](CCCNC(=N)N)C(=O)O | human red blood cells | – | – | 128 µg/mL, 3 h, 37 °C | reference: Triton X-100 | hemolysis | 2.02%
CO[C@]1(COP(=O)(N[C@@H](C)C(=O)OCc2ccccc2)Oc2ccccc2)O[C@@H](n2ccc(N)nc2=O)C(F)(F)[C@@H]1O (stereo partly shown) | HEL embryonic lung fibroblasts | cell morphology, microscopy | – | – | – | minimum cytotoxic concentration | > 100 µM
Cc1cn(Cc2ccc(O)c(C=O)c2)c(=O)[nH]c1=O | HEL fibroblasts | cell morphology alteration | – | – | – | minimum cytotoxic concentration | > 100 µM
CC(C)C[C@H](NC(=O)[C@H](Cc1ccccc1)NC(=O)[C@H](Cc1ccccc1)NC(=O)Cc1ccc(-c2ccccc2)cc1)C(=O)N[C@@H](CCCCN)C(=O)N[C@@H](CCCNC(=N)N)C(=O)N[C@H](C(=O)N[C@@H](Cc1c[nH]c2ccccc12)C(=O)N[C@@H](CCCCN)C(=O)N[C@@H](CCCNC(=N)N)C(=O)O)C(C)C | THP-1 | MTT | – | concentration not given, 24 h | – | viability | > 80%
C=C(C[C@H](N)C(=O)O)C(=O)Nc1ccc(F)cc1 | MDA-MB-231 | – | – | 24 h | reference: vehicle | concentration increasing cytotoxicity | 10 µM
COc1c(O)cc2oc3cc(O)c(CC=C(C)C)c(O)c3c(=O)c2c1CC=C(C)C | Caco-2 | RP-HPLC | – | concentration not given, 24 h, Transwell inserts | – | xanthone amount | 9370 ± 510 pmol/dish
Cl.Cl.O=C(c1cc(F)cc(N2CCNCC2)c1)N1CCN(C(=O)c2ccc(O[C@H]3CCNC3)c(C3CCCCC3)c2)CC1 | MDA-MB-231 | trypsin-EDTA digestion vs solvent extraction | – | concentration not given, 6 h | – | nonspecific binding | 38%
C=C(C)[C@]12C[C@@H](COC(=O)c3ccccc3)[C@@]34OC5(CCCCCCC[C@@H](C)[C@H]6[C@H](C)C(=O)[C@@](O)([C@H](O)[C@@]7(CO)O[C@H]7[C@H]3[C@H]1O5)[C@@H]64)O2 | MT4 | cell growth or viability, ATP luminescence | – | – | – | IC50 | 7.3 µM
CCCCC(=O)N1CCC2(CC1)N=C(N)N=C(N)N2c1cccc(OC)c1 | MDCK | microscopy, altered cell morphology | – | – | – | minimum cytotoxic concentration | ≥ 100 µM
CCCCN(CCCC)N=O | HepaRG, 2D culture | flow cytometry micronucleus | – | highest tested concentration, 24 h, plus 3 days hEGF | reference: vehicle | relative survival | 66.6%
C[C@H](Cn1cnc2c(N)ncnc21)OCP(=O)(O)O | hCMEC/D3 | – | – | 10 µM, 1 h | – | intracellular concentration | 0.64 ± 0.17 ng/mL

Substance | cell line | test | test system | setting | how to read | measurement | value
H-HGLASTLTRWAHYNALIRAFGGG-NH2 (C-amide) | U-87 MG | fluorimetry | – | 5 µM, 2 h, serum-free | – | internalized peptide | 80 to 90%
CC[C@H](C)[C@H](NC(=O)[C@H](C)NC(=O)[C@H](CCCNC(=N)N)NC(=O)[C@H](CCCNC(=N)N)NC(=O)[C@H](CC(N)=O)NC(=O)[C@H](CCCNC(=N)N)NC(=O)[C@H](CCCNC(=N)N)NC(=O)[C@H](C)NC(=O)[C@@H](NC(=O)[C@H](CO)NC(=O)[C@@H](NC(=O)[C@@H](NC(=O)[C@H](CS)NC(=O)[C@H](CCCCN)NC(=O)[C@@H](N)CCCNC(=N)N)C(C)C)[C@@H](C)CC)C(C)C)C(=O)N[C@@H](CCCCN)C(=O)N[C@H](C(=O)N[C@@H](CC(C)C)C(=O)N[C@@H](CS)C(=O)N[C@@H](CC(N)=O)C(=O)O)[C@@H](C)CC | human red blood cells | – | – | 128 µg/mL, 3 h, 37 °C | reference: Triton X-100 | hemolysis | -0.03%
C=C(C[C@H](N)C(=O)O)C(=O)NCc1ccc(F)cc1 | MDA-MB-231 | – | – | 72 h | reference: vehicle | concentration increasing cytotoxicity | 320 µM
CN(CC(=O)NCCN1CCOCC1)S(=O)(=O)NCc1cccc(Oc2ccccc2)c1.Cl | HG23 norovirus replicon cells | – | – | 48 h | – | TD50 | 235 ± 45 µM
Cc1cc(NC(=O)c2cc3c(=O)n4cccc(C)c4nc3n2C)ccc1Br | Vero E6 | MTT | – | – | – | IC50 | 139 ± 10.6 µM
O=C(Cc1ccccc1Nc1c(Cl)cccc1Cl)Oc1ccc(-c2cc(=S)ss2)cc1 | HepG2 and LS180 | EROD activity, inhibitor | – | 24 h, averaged over cell lines, together with: benzo[a]pyrene 1 µM | – | IC50 | 50 µM
N[C@@H](Cn1oc(=O)[nH]c1=O)C(=O)O | rat cerebellar granule cells | PI hydrolysis | – | 24 h, culture-conditioned medium | reference: freshly prepared | EC50 and Emax | no effect
O=P(Oc1ccccc1)(Oc1ccccc1)Oc1ccccc1 | human iPSC-derived cardiomyocytes | mitochondrial membrane potential, refers to: JC-10 granules | – | 30 min | – | point of departure | < 30 µM
C/C=C(\C)C(=O)O[C@@H]1[C@@H](O)[C@@H]2O[C@H]3[C@H](O[C@@H](CCCCC)CCCCCCC(=O)CCC(=O)OC[C@@H](O2)[C@H]1OC(=O)/C=C/c1ccccc1)O[C@H](C)[C@H](OC(C)=O)[C@@H]3O | MDA-MB-231 | cytotoxicity | – | – | – | IC50 | 0.0065 µM
CCCCC(CC)COP(=O)(Oc1ccccc1)Oc1ccccc1 (stereo not shown) | human iPSC-derived cardiomyocytes | mitochondrial membrane potential, refers to: JC-10 granules | – | 30 min | – | point of departure | < 30 µM
CC[C@H](C)[C@H](NC(=O)[C@H](CC(N)=O)NC(=O)[C@H](C)NC(=O)[C@H](CCCNC(=N)N)NC(=O)[C@H](CCCNC(=N)N)NC(=O)[C@H](CC(N)=O)NC(=O)[C@H](CCCNC(=N)N)NC(=O)[C@H](CCCNC(=N)N)NC(=O)[C@H](C)NC(=O)[C@@H](NC(=O)[C@H](CC(C)C)NC(=O)[C@@H](NC(=O)[C@@H](NC(=O)[C@H](CS)NC(=O)[C@H](CCCCN)NC(=O)[C@@H](N)CCCNC(=N)N)C(C)C)[C@@H](C)CC)C(C)C)C(=O)N[C@H](C(=O)N[C@H](C(=O)N[C@@H](CC(C)C)C(=O)N[C@@H](CS)C(=O)N[C@@H](CCCNC(=N)N)C(=O)O)[C@@H](C)CC)C(C)C | human red blood cells | – | – | 128 µg/mL, 3 h, 37 °C | reference: Triton X-100 | hemolysis | 4.23%
O=NN1CCN(C2CCCC2)CC1 | HepaRG 3D spheroids | cell viability | – | concentration not given, 24 h | reference: vehicle | ATP level | 86.4%
Clc1ccc(-c2cc(Cl)c(Cl)c(Cl)c2)cc1Cl | primary mouse hepatocytes | inducer, refers to: Cyp1a1 mRNA | C57BL/6 | 24 h | – | EC50 | 0.0123 ± 0.0079 µM
C-type natriuretic peptide | HEK293 expressing human GC-B | cGMP elevation | human kidney membranes | 37 °C | – | half-life | 4.3 min
CC(C)N(N=O)C(C)C | HepaRG 3D spheroids | cell viability | – | concentration not given, 24 h | reference: vehicle | ATP level | 84.7%
O=C(c1cc(Cc2n[nH]c(=O)c3ccccc23)ccc1F)N1CCN(C(=O)C2CC2)CC1 | MDA-MB-231 | – | – | 24 h | reference: vehicle | concentration increasing cytotoxicity | 320 µM
CC(=O)O[C@@]12CO[C@@H]1C[C@H](O)[C@@]1(C)C(=O)[C@H](OC(=O)C3CC3)C3=C(C)[C@@H](OC(=O)[C@H](O)[C@H](C=C(C)C)NC(=O)OC(C)(C)C)C[C@@](O)([C@@H](OC(=O)c4ccccc4)[C@H]21)C3(C)C | WI-38 | MTT | – | 72 h, no GSH-OEt added | – | IC50 | 0.0107 µM
CN(CCCC(=O)O)N=O | HepaRG 3D spheroids | DNA damage, refers to: % tail DNA | – | 24 h | reference: vehicle | lowest effective concentration | 625 µM
COc1cccc2c1C(=O)c1c(O)c3c(c(O)c1C2=O)C[C@@](O)(C(=O)CO)C[C@@H]3O[C@H]1C[C@H](N)[C@H](O)[C@H](C)O1 | HCT-8 | flow cytometry, refers to: positive cells | – | 10 µg/mL, 4 h, 10% FBS | – | cellular uptake | 57.8%
CCN(CC)N=O | HepaRG spheroids | micronucleus formation, flow cytometry | – | 24 h | reference: vehicle control | lowest effective concentration | 5000 µM
CC1(C)[C@H](C(=O)O[C@H](C#N)c2cccc(Oc3ccccc3)c2)[C@@H]1/C=C(\Cl)C(F)(F)F (racemic) | Caco-2 | Hoechst and PI staining | – | 25 µM, 48 h | reference: untreated | apoptotic cells ratio | 3
CN(N=O)c1ccccc1 | HepaRG 3D spheroids | DNA damage, refers to: % tail DNA | – | 24 h | reference: vehicle | lowest effective concentration | 188 µM
N#CCCNCCC#N | human iPSC-derived cardiomyocytes | cytotoxicity, calcein AM | – | 24 h | – | point of departure | 30 µM
